Assay results gathered from unrelated publications.
Each numbered part is a random draw from the data of one study; scales do not carry over between parts. Substitutions count along the parent as printed.

Block 1
Target: RING finger protein unkempt homolog, zinc fingers 1-6, GST-SBP tag (UNK, Homo sapiens, UniProt Q9C0B0, residues 30-357)
Chain of UniProt Q9C0B0 (30-357, looked up): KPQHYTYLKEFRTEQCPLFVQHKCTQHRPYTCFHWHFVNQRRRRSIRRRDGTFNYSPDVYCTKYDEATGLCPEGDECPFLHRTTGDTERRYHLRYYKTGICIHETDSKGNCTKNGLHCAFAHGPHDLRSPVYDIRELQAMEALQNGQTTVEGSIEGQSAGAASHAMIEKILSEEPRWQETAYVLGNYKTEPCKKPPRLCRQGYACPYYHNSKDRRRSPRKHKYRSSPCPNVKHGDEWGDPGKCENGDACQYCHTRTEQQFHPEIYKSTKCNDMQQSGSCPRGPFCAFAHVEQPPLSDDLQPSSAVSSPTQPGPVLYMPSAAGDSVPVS
Method: RNA Bind-n-Seq
Molecule type: RNA
Sample: in vitro
Tested at: not given
Setting: RNA with constant flanks, human-mouse chimeric sites, ends assumed
Reference: input RNA pool
Direction: higher = stronger binding
Constant ends, left off below: GGGAGUUCUACAGUCCGACGAUC … CAACAGAGGAUUGAGCAUCA
`CUGUGACCACAAGAUCCUACCUGAGUGGCAGCUGAAGCACUUUUCUUCUCCUUGCCUGAACCCCCCCCCACUGCCCCCCCAUCCCCCAGUGUCGGCUGAGAUGUUGCCAGCAGACAGUUC` has a bound/input enrichment of 0.661 ratio.
The bound/input enrichment of `CACACACUCUUCUGCGGCACCCUCAUUUUGCAGGCCCGGGCCUAUGUGGGACCGCACGUCCUGGCAGUGGUGACCCGCACAGGGUUCUGCACGGCAAAAGGGGGCCUGGUGAGCUCCAUC` is reported as 0.102 ratio.
With `GCAGGAUCUUCUAAGUACCAGUGGGACAUUAUGAAAUCCCUUGGGCUCUCUGAUGACGACAUAGUGAAAUUUUCUGAAGCAGAGCACUGGCUUGAUUAUUUCCCACCACUGGCUAUUCAG` the bound/input enrichment was 0.232 ratio.
`UACUCAACUUUCUUGCCACAUUUUGAAUUCCAAGACAUUAUUCCUCCAGAUGACUUUCUAACGAGUGAUGAAGAGCAAGAUUUGGUUUUAUUUGGAACUAUGAGAGGUCAUGUGGUUGGA` gave a bound/input enrichment of 0.241 ratio.
With `GAUAAGAAAAGCUUGUUGGAGACCCGCUUGCAUGUCACUGGUAGAGAACUGAGGUCCCAAAUAGCUGAAACCUUUGGAUUUCAAGAAAAUUACAUCAAGAUCGUAAUAAAUAAGAAACAG` the bound/input enrichment was 0.44 ratio.
`GAGUCGAGCAAACUUGAAACAAUUCGUUAUCUUGCAGCCUCAGUGUUCACUUGCUUGGCGAUAGCAUUGGGGUUUUAUAGGUUCUGGGGAAGUAGUAGACGAUGAUGCUGCCGCUGCUGC` gave a bound/input enrichment of 0.79 ratio.
`AAAUCGUGUGUGUCAAAUAUUGAAAGUGCUUUAUCUACACUCCAGUAUGUAAGCAGCAUAGUAGUUUCUUUAGAGAAUAGGUCAGCCAUUGUAAAGUACAAUGCAAGCUUAGUCACUCCA` has a bound/input enrichment of 13.6 ratio.
For `CACGUGUCUGCAGUACUUGAUGUGGACUACUCUCCCACUGGGAAGGAGUUUGUGUCUGCCAGCUUUGAUAAAUCUAUUAGAAUCUUUCCUGUGGACAAGAGCCGAAGCAGGGAAGUGUAU`, the bound/input enrichment was 0.187 ratio.
`AUAGAUGAAAUUGAUGUGGACCAGGAAGGAAUUGCUGAAAUGAUCCUGGAUGAAAAUGCUAUUGCUCAGGUCCCACGCCCUGGAACGUCUUUGAAGCUCCCUGGCACUAAUCAGACAGGA` has a bound/input enrichment of 0.296 ratio.
With `GUGACUGACAUUAAAAUUUCCCCUCAGCAAAGAAGUGCAGUAGUCACCAUAAUUCCAUCUGUGGUGAGUGCCAGUCAGAUUGUGGAGCUGGUCCCAGAACUCAGUUUAGACAUGGGAACU` the bound/input enrichment was 0.4 ratio.
`UUGCUACUGACUCCCUGGGUCAAGUUCCUGUGGGAAUCAUACAGGCAGUGUUUGGACCUUCUUCGAAACAAUUCUAGAGUAGAGCGCCUUUACCAUGAUAUUGCCCAACAAGCUUUCAAA` gave a bound/input enrichment of 0.101 ratio.

Block 2
Target: ABI1, truncated, D143A, DHFR fusion (Arabidopsis thaliana)
Method: DHFR PCA, deep sequencing
Sample: yeast
Setting: methotrexate growth selection, single substitutions
Added: (+)-ABA 58 µM
Reference: wild-type fitted maximum
Direction: higher = stronger binding
Starting sequence: PYL1, truncated, DHFR fusion (Arabidopsis thaliana); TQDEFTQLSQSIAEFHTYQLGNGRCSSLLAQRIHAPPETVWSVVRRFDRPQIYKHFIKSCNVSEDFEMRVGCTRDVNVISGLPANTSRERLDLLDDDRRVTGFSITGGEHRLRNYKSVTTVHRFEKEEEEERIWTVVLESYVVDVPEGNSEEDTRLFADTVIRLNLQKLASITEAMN; partner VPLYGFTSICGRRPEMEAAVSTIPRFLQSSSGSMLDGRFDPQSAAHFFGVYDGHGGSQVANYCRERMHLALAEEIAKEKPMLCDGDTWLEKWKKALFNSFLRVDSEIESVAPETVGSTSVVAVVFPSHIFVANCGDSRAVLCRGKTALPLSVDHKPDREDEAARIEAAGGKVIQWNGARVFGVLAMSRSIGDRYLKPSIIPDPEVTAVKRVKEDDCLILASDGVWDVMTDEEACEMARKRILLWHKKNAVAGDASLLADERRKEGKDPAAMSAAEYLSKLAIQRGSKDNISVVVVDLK
Under “relative binding score”, `S11Q` is recorded as 91.1%.
`V76M` — result for “relative binding score”: 36.1%.
Under “relative binding score”, `A158Y` is recorded as 3.84%.
`I105E` — result for “relative binding score”: -2.31%.
Under “relative binding score”, `Q31N` is recorded as 22.8%.
Under “relative binding score”, `V142G` is recorded as 50.6%.
`F47P` — result for “relative binding score”: -1.83%.
`V137C` — result for “relative binding score”: 44.9%.
`T119F` — result for “relative binding score”: 13.8%.
For `V76F`, “relative binding score” read 2%.
`V78I`: “relative binding score” 90.2%.

Block 3
Target: CEBPB, bZIP domain (human)
Method: DHFR protein complementation
Sample: yeast
Setting: single substitutions, most at no-binding floor
Reference: wild-type JUN-FOS pair
Direction: higher = stronger binding
Starting sequence: JUN, bZIP domain (human); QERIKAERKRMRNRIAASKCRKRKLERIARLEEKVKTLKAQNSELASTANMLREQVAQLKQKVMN; partner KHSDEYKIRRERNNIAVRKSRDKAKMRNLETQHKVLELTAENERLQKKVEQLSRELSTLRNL
The binding fitness of `Q41V` is reported as -1.39 natural log.
`N42D` has a binding fitness of -1.58 natural log.
With `N42W` the binding fitness was -1.54 natural log.
`S43M` gave a binding fitness of -1.35 natural log.
With `R30C` the binding fitness was -1.34 natural log.
For `L52D`, the binding fitness was -1.45 natural log.
For `A57L`, the binding fitness was -1.25 natural log.
With `V35Q` the binding fitness was -1.59 natural log.

Further values, each from its own experiment
With `PhoQ, residues 284 288 289 292 302 303 TTCLQL` the fold induction was 9.6 (PhoP, residues 12 14 15 18 19 VQGLL (Escherichia coli, UniProt P23836); Sort-seq, measured: YFP reporter; E. coli; PhoQ-PhoP variant library, added: 10 µM Mg2+; reference: high Mg2+ state, higher = stronger signaling).

For quick reference, copied from above (block 1):
With `GAUAAGAAAAGCUUGUUGGAGACCCGCUUGCAUGUCACUGGUAGAGAACUGAGGUCCCAAAUAGCUGAAACCUUUGGAUUUCAAGAAAAUUACAUCAAGAUCGUAAUAAAUAAGAAACAG` the bound/input enrichment was 0.44 ratio.
`GAGUCGAGCAAACUUGAAACAAUUCGUUAUCUUGCAGCCUCAGUGUUCACUUGCUUGGCGAUAGCAUUGGGGUUUUAUAGGUUCUGGGGAAGUAGUAGACGAUGAUGCUGCCGCUGCUGC` gave a bound/input enrichment of 0.79 ratio.
`AAAUCGUGUGUGUCAAAUAUUGAAAGUGCUUUAUCUACACUCCAGUAUGUAAGCAGCAUAGUAGUUUCUUUAGAGAAUAGGUCAGCCAUUGUAAAGUACAAUGCAAGCUUAGUCACUCCA` has a bound/input enrichment of 13.6 ratio.
For `CACGUGUCUGCAGUACUUGAUGUGGACUACUCUCCCACUGGGAAGGAGUUUGUGUCUGCCAGCUUUGAUAAAUCUAUUAGAAUCUUUCCUGUGGACAAGAGCCGAAGCAGGGAAGUGUAU`, the bound/input enrichment was 0.187 ratio.
